Published values gathered from unrelated publications.
Parts stem from different laboratories: compare values within a part only. Substitutions count along the parent as printed.

Study 1
Target: RING finger protein unkempt homolog, zinc fingers 1-6, GST-SBP tag (UNK, Homo sapiens, UniProt Q9C0B0, residues 30-357)
Technique: RNA Bind-n-Seq
Molecule type: RNA
Matrix: in vitro
Concentration: not given
Notes: RNA with constant flanks, human and mouse sites, ends assumed
Baseline: input RNA pool
Reading: higher = stronger binding
Constant ends, left off below: GGGAGUUCUACAGUCCGACGAUC … CAACAGAGGAUUGAGCAUCA
Construct (chain): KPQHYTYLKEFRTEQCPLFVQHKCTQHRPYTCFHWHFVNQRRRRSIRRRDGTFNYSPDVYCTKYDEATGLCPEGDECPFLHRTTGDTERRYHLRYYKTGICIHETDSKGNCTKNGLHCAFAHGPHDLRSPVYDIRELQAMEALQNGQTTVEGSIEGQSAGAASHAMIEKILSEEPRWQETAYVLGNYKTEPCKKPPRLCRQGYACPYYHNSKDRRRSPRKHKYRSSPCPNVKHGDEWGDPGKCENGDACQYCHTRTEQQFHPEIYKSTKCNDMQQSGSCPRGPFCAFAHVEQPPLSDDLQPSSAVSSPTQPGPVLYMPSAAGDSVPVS
`UUCACUCCUUUUGGGUUUGUUGUUCUUCAAGGAAACAAGAGGGUCCACUUCAUUAAAUGGAAUGAGGUGACCAAGCUGAAAUUUGAAGGAAAGACUUUCUAUUUAUACGUAAGUCAGAAA` has a bound/input enrichment of 0.135 ratio.
`AUGGAGGUUAAAGUGAAGAUUCCUGAAGAAUUAAAACCAUGGCUUGUUGAGGACUGGGACUUAGUUACCAGGCAGAAGCAGCUGUUUCAACUCCCUGCCAAGAAAAAUGUAGAUGCAAUU` has a bound/input enrichment of 0.666 ratio.
`AUGAUUCAGAAUCAUUUUCUAUUGUGGUAUUAUAGGUUGGUUAAAGUGAUGGCCUUUUUGAUGGGUUUUGUUGUGUCUUGUGAACAAGUCGUUACUGUGUCCAUUAUUGGAAUGGAAUUA` has a bound/input enrichment of 0.418 ratio.
`AAUGCAGUAGAAGCCAUCCACAGAGCUGUGGAAUUUAAUCCACACGUGCCAAAAUAUCUACUAGAAAUGAAAAGCUUAAUCCUCCCACCAGAACACAUCCUGAAGAGAGGAGACAGUGAA` gave a bound/input enrichment of 1.55 ratio.
With `CGAGAUGAGUUUCUGAGGAUCAGCACUGCCAGUGGAGAUGGGCGUCACUACUGCUACCCUCAUUUCACCUGCGCUGUGGACACUGAGAACAUCCGCCGUGUGUUCAACGACUGCCGUGAC` the bound/input enrichment was 0.037 ratio.
For `CUGACCCUGGCCAACAAUGUGACUCCAGCCAAAGAUGUUCCACCACUCUCAGAAACAGAGGCAACACCAGUUCCAAUUAAAGACAUGGAAAUUGCACAAACACAAAAAGGAAUAAGUGAG`, the bound/input enrichment was 0.206 ratio.
`GAGCGGUCCCAGGGGUCCACCAGCAACAGUGACUGGAUGAAAAACCUCAUCUCCCCUGACCUGGGGGUUGUGUUUCUCAACGUACCUGAAAACCUGAAAGACCCAGAACCCAACAUCAAG` gave a bound/input enrichment of 0.0803 ratio.
The bound/input enrichment of `CCCACCACAAAAAUUCAGAUCAGGUUGGCAGAUGGAAGUCGUCUCGUACAGAGAUUCAAUAGCACACACCGGAUUCUGGAUGUACGAGACUUUAUAGUACGGUCACGUCCUGAAUUUGCG` is reported as 0.262 ratio.

Study 2
Target: CCNE1, cyclin fold, Cln2 fusion (human)
Technique: yeast growth competition, sequencing
Matrix: yeast
Notes: strong parent motif
Baseline: not given
Reading: higher = stronger binding
Starting sequence: viral docking peptide; TSVRRALFTGGSD
For `TSVRRALFTGFSD [G11F]`, “normalised enrichment score” read 5.05.
`TSVRRPLFTGGSD [A6P]`: “normalised enrichment score” 0.975.
`TSVGRALFTGGSD [R4G]` — result for “normalised enrichment score”: -0.0996.
`TTVRRALFTGGSD [S2T]`: “normalised enrichment score” 5.78.
Under “normalised enrichment score”, `TQVRRALFTGGSD [S2Q]` is recorded as 4.7.
`TSVRYALFTGGSD [R5Y]` — result for “normalised enrichment score”: 0.141.
`TSVRCALFTGGSD [R5C]`: “normalised enrichment score” 0.54.
`TSVRRALFTEGSD [G10E]`: “normalised enrichment score” 6.73.
`TSVRRALFIGGSD [T9I]` — result for “normalised enrichment score”: 5.23.
Under “normalised enrichment score”, `TSVRRALFTTGSD [G10T]` is recorded as 5.76.
`TSVRPALFTGGSD [R5P]` — result for “normalised enrichment score”: 0.0874.
`TSVRRAVFTGGSD [L7V]` — result for “normalised enrichment score”: 0.103.
`TSVRRALFMGGSD [T9M]`: “normalised enrichment score” 5.29.
`TSVFRALFTGGSD [R4F]`: “normalised enrichment score” 1.21.
`TSWRRALFTGGSD [V3W]`: “normalised enrichment score” 2.1.
`TSVRQALFTGGSD [R5Q]` — result for “normalised enrichment score”: 0.327.
`TSVRRALFTGGRD [S12R]`: “normalised enrichment score” 4.76.
For `TNVRRALFTGGSD [S2N]`, “normalised enrichment score” read 5.9.

Study 3
Target: HLA class I histocompatibility antigen, A alpha chain, allele A*25:01 (Homo sapiens, UniProt P04439)
Effect on: peptide-MHC binding
Molecule type: peptide
Concentration: concentration not given
Under binding, `YQVEGATRV` is recorded as “inactive”.
`YEPEMQAQV`: binding “inactive”.
Under binding, `RIYKRSLKL` is recorded as “inactive”.
`VLIRRCHYL`: binding “inactive”.
Under binding, `SMNYPNSYK` is recorded as “inactive”.
`RLAPEPVYT` — result for binding: “inactive”.
For `MPWLDNIVE`, binding read “inactive”.
`FPLWNTEKI`: binding “inactive”.
Under binding, `FTGWRDPGL` is recorded as “inactive”.

Study 4
Target: UBE2D2 UBC core domain (UniProt P62837)
UniProt P62837, sequence (whole entry, looked up): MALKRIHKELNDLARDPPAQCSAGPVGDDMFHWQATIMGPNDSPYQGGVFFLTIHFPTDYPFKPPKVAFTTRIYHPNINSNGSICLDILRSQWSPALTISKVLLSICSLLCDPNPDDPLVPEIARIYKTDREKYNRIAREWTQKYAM
Technique: yeast two-hybrid
Matrix: yeast
Notes: mostly zero background
Baseline: not given
Reading: higher = stronger interaction
B1: RNF183 RING domain (UniProt Q96D59); chain EQQGRELEAECPVCWNPFNNTFHTPKMLDCCHSFCVECLAHLSLVTPARRRLLCPLCRQPTVLASGQP
B2: ANAPC11 RING domain (UniProt Q9NYG5); chain GICRMAFNGCCPDCKVPGDDCPLVWGQCSHCFHMHCILKWLHAQQVQQHCPMCRQEWKFKE
B3: TRIM22 RING domain (UniProt Q8IYM9); chain VKVDIEKEVTCPICLELLTEPLSLDCGHSFCQACITAKIKESVIISRGESSCPVCQTRFQPGNLRP
B4: TRIM37 RING domain (UniProt O94972); chain SVESIAEVFRCFICMEKLRDARLCPHCSKLCCFSCIRRWLTEQRAQCPHCRAPLQLRELVN
B5: TRIM26 RING domain (UniProt Q12899); chain PLRSLEEEVTCSICLDYLRDPVTIDCGHVFCRSCTTDVRPISGSRPVCPLCKKPFKKENIRP
`B1 (RNF183 RING domain)` — result for “lacZ reporter activity”: 0.
`LGTKLEAKYLCSACRNVLRRPFQAQCGHRYCSFCLASILSSGPQNCAACVHEGIYEEGIS (TRAF2 RING domain (UniProt Q12933))` — result for “lacZ reporter activity”: 0.
For `B2 (ANAPC11 RING domain)`, “lacZ reporter activity” read 0.
For `B3 (TRIM22 RING domain)`, “lacZ reporter activity” read 0.
`PEELAVNNDDCAICWDSMQAARKLPCGHLFHNSCLRSWLEQDTSCPTCRMSLNIADNNR (AMFR RING domain (UniProt Q9UKV5))`: “lacZ reporter activity” 10200.
Under “lacZ reporter activity”, `B4 (TRIM37 RING domain)` is recorded as 0.
`B5 (TRIM26 RING domain)` — result for “lacZ reporter activity”: 0.

Further values, each from its own experiment
Under cross-linked residues, `HADHA (Homo sapiens, UniProt P40939)` is recorded as “K625 to M1” (ATP5ME (Homo sapiens, UniProt P56385); cross-linking MS; cells; added: BSPNO).

For quick reference, copied from above (study 2):
`TSVRPALFTGGSD [R5P]` — result for “normalised enrichment score”: 0.0874.
`TSVRRAVFTGGSD [L7V]` — result for “normalised enrichment score”: 0.103.
`TSVRRALFMGGSD [T9M]`: “normalised enrichment score” 5.29.
`TSVFRALFTGGSD [R4F]`: “normalised enrichment score” 1.21.
`TSWRRALFTGGSD [V3W]`: “normalised enrichment score” 2.1.
`TSVRQALFTGGSD [R5Q]` — result for “normalised enrichment score”: 0.327.
`TSVRRALFTGGRD [S12R]`: “normalised enrichment score” 4.76.
